# Published values from different studies.
# Every numbered part comes from another study and shows a few of its results, in no order.

# Set 1
# Target: Sal-like protein 4, full length isoform A (SALL4, Homo sapiens, UniProt Q9UJQ4, residues 1-1053)
# Chain of UniProt Q9UJQ4 (whole entry, looked up): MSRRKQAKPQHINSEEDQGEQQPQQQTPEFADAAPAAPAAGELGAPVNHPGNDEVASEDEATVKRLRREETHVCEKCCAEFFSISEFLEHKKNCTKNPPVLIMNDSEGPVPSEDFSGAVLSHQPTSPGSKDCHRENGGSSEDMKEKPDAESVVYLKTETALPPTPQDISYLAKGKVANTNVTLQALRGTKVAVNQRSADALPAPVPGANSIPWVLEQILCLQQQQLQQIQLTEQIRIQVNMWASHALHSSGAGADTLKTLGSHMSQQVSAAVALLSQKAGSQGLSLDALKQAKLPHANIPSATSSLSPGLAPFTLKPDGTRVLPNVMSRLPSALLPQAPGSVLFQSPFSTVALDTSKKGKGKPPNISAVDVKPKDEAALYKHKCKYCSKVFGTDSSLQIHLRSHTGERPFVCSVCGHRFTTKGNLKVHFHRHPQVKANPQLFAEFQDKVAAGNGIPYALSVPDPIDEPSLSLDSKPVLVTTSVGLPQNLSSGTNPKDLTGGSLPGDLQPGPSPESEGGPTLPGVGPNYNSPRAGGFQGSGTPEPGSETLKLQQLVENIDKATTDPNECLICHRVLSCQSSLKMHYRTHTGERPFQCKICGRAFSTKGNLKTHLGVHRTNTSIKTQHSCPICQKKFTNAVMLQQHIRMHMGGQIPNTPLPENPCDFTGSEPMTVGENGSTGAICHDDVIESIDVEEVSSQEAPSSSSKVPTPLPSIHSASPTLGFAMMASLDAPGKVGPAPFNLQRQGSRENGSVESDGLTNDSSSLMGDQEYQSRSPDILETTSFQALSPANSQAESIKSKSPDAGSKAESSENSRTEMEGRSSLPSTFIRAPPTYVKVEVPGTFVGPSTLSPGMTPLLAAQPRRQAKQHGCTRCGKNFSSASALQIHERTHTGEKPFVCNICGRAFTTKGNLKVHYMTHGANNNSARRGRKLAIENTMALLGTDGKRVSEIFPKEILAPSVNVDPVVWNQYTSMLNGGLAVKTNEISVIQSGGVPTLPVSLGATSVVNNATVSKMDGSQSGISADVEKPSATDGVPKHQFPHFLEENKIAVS
# Method: universal PBM
# Molecule type: double-stranded DNA, one strand shown
# Sample: in vitro
# Tested at: 600 nM
# Setting: 8-mer, flanks averaged, mean of replicates
# Reading: higher = stronger binding
Sequence,E-score
CATAATGC,0.263
ACCGGATA,-0.0938
GAAAATAC,0.177
ATCGTTCC,-0.194

# Set 2
# Target: Fragile X messenger ribonucleoprotein 1, C-terminal low-complexity region (Fmr1, Mus musculus, UniProt P35922)
# Method: RNA Bind-n-Seq
# Molecule type: RNA
# Sample: in vitro
# Tested at: 200 nM
# Setting: whole 134-nt RNA, ends assumed
# With: 150 mM KCl
# Reference: input library
# Reading: higher = stronger binding
Sequence,log2 enrichment
GGGAGUUCUACAGUCCGACGAUCUCAAGUCCUGUGCUACACAUCGUAUGUACCGAAUCGGGCCGGGCCGGGCCGGGGAAAGUAUUAUGUUACGCCGUUCGGAUCUGCACUUCCUGGAAUUCUCGGGUGUCAAGG,0.174
GGGAGUUCUACAGUCCGACGAUCUGCCAUAAGCGGCACCGGCACUGCCCGGUUGUCGUGUCCGAGGCCACCAUCGUGGGCGUCCGCAAGACCGGGCAGAUCUGGCCCAACGAUUGGAAUUCUCGGGUGUCAAGG,-1.5
GGGAGUUCUACAGUCCGACGAUCUAACUUUAGAGGAGGAUCUGAUGGAUAUGGCAGUGGACGUGGAUUUGGGGAUGGCUAUCAUGGGUAUGGAGGAGGACCUGGAGGUGGCAAUGGAAUUCUCGGGUGUCAAGG,0.258
GGGAGUUCUACAGUCCGACGAUCUGAAAUGUUUUUUUCUCUGUCUUCUUUCAGGUCUUUGUUGAGUAUGCAAAUGCUGGUGAUUCCAAAGCUGCGCAGAAAUUACUGACUGGAUGGAAUUCUCGGGUGUCAAGG,-0.575

# Set 3
# Target: PABPC1L2, full length, GST fusion (mouse, UniProt A0ABA7IW68)
# Method: RNAcompete
# Molecule type: RNA
# Sample: in vitro
# Tested at: 20 nM
# Setting: 7-mer, probes averaged, single round
# Reference: mean of 7-mers
# Reading: higher = stronger binding
# Target sequence (chain): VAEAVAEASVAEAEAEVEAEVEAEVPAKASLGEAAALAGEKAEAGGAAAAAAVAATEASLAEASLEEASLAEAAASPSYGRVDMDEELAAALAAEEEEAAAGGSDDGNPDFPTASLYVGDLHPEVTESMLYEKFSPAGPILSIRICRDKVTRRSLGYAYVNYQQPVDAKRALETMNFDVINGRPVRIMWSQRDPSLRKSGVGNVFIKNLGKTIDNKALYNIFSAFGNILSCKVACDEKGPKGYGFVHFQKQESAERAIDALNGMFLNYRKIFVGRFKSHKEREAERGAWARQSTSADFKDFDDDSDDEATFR
Sequence,7-mer Z-score
CACGCAA,0.0424
UGAGGUA,-0.119
GGGUGAC,0.0768

# Single results of other studies
Molecule,target,test,system,conditions,scale,measurement,value
"PhoQ, residues 284 288 289 292 302 303 SLANKL","PhoP, residues 12 14 15 18 19 DLLYY (Escherichia coli, UniProt P23836)","Sort-seq, measured: YFP reporter",E. coli,"PhoQ-PhoP variant library, with: 10 µM Mg2+","reference: high Mg2+ state, higher = stronger signaling",fold induction,1.59

# Repeated from above (set 3):
Sequence,7-mer Z-score
CACGCAA,0.0424
